Measured values collected from several papers.
Values joined by “and” are separate records of one study, mostly repeats; a detail may differ. ± gives the spread as reported.
rep main protease: Replicase polyprotein 1ab, main protease (rep, Severe acute respiratory syndrome coronavirus 2, UniProt P0DTD1)

SMILES = Nc1nc2c(ncn2[C@@H]2O[C@@H]3COP(=O)(O)O[C@H]4[C@@H](O)[C@H](n5cnc6c(=O)[nH]c(N)nc65)O[C@@H]4COP(=O)(O)O[C@H]3[C@H]2O)c(=O)[nH]1; tested on = Chikungunya virus; test = viral infection; setting = concentration not given; endpoint = infectivity; value = 102% and 158% and 167% and 172%
SMILES = CC(=O)Oc1cc2c(cc1NC(=O)c1ccc(C(C)(C)C)cc1)CCCCC2; tested on = Chikungunya virus; test = viral replication; system = NHDF; endpoint = EC90; value = 2800 nM
SMILES = CN(C)S(=O)(=O)NCC1CCOC2(CCN(C(=O)C3(c4cccc(C(F)(F)F)c4)CCCC3)CC2)C1 (stereo not drawn); tested on = Chikungunya virus; test = viral replication; system = MRC-5; setting = 6 h; endpoint = EC50; value = 20000 nM
SMILES = N#Cc1c(Nc2ccc(F)cc2)n[nH]c1NS(=O)(=O)c1ccc2ccccc2c1; tested on = Chikungunya virus; test = viral replication; system = Vero 76, S27; endpoint = EC50; value = > 25000 nM
SMILES = Nc1ncnc2c1ncn2[C@@H]1O[C@@H]2COP(=O)(O)O[C@H]3[C@@H](O)[C@H](n4cnc5c(=O)[nH]cnc54)O[C@@H]3COP(=O)(O)O[C@H]2[C@H]1O; tested on = Chikungunya virus; test = upregulated Reactome pathway, RNA sequencing, refers to: HATs acetylate histones (R-HSA-3214847); system = HFF-1; scale = relative to: CHIKV-infected untreated; endpoint = fold enrichment; value = 2.79
SMILES = CCN(CC)CCCC(C)Nc1c2ccc(Cl)cc2nc2ccc(OC)cc12 (stereo not drawn); tested on = Chikungunya virus; test = replicon Gluc reporter; system = BHK-21 CHIKV replicon Gluc reporter; setting = concentration not given, dose-dependent; endpoint = antiviral activity; value = active
SMILES = O=C(/C=C/c1ccc(O)c(O)c1/C=C/c1ccc(O)c(O)c1)O[C@H](Cc1ccc(O)c(O)c1)C(=O)O; tested on = Spike glycoprotein (Severe acute respiratory syndrome coronavirus 2, UniProt P0DTC2); test = binding, BLI; endpoint = Kd; value = 8080 nM
SMILES = CCN(CC)Cc1cc(Nc2ccnc3cc(Cl)ccc23)ccc1O; tested on = Chikungunya virus; test = replicon luciferase activity; system = BHK-21 CHIKV replicon cells; setting = 20 µM, 48 h; endpoint = inhibition; value = ≥ 80%
SMILES = O=C(N1CCC2(CC1)CC(Oc1ccccn1)CCO2)C1(c2ccccc2)CCCC1 (stereo not drawn); tested on = Chikungunya virus; test = viral replication; endpoint = EC50; value = ~1000 nM
SMILES = CC(C)(C)c1ccc(C(=O)Nc2ccc3c(c2)CCCCC3)cc1; tested on = Chikungunya virus; test = viral replication; system = NHDF; endpoint = EC90; value = 700 nM
SMILES = CNc1nc(N)ncc1-c1cn([C@@H]2O[C@H](CO[P@@](=O)(N[C@@H](C)C(=O)OC(C)C)Oc3ccccc3)[C@@H](O)[C@@]2(C)F)cn1; tested on = Chikungunya virus; setting = concentration not given; endpoint = antiviral activity; value = inactive
SMILES = O=C(N1CCC2(CC1)C[C@@H](CN1CCCCS1(=O)=O)CCO2)C1(c2cc(F)cc(F)c2)CCCC1; tested on = Chikungunya virus; test = viral replication; endpoint = EC50; value = 10000 nM
SMILES = Cc1ccc(-c2ccc(C)cn2)nc1; tested on = rep main protease; test = reporter gene (mKate2), inhibitor; setting = 20 µM; endpoint = inhibition; value = -0.934%
SMILES = COc1nc2c(cc1NC(=O)c1ccc(C(C)(C)C)cc1)CCCC2; tested on = Chikungunya virus; test = viral replication; system = NHDF; endpoint = EC90; value = 2300 nM
SMILES = Cc1nc2c(=O)n(C)c(=O)nc-2n(C)n1; tested on = Chikungunya virus; test = replicon Gluc reporter; system = BHK-21 CHIKV replicon Gluc reporter; setting = concentration not given, dose-dependent; endpoint = antiviral activity; value = active
SMILES = CC(C)(C)c1ccc(C(=O)Nc2cc3c(cc2O)CCCCC3)cc1; tested on = Chikungunya virus; test = viral replication; system = NHDF; endpoint = EC90; value = 400 nM
SMILES = C=C(C)C(Cc1c(OC)ccc(C(=O)/C=C/c2ccc(O)cc2)c1O)OO (stereo not drawn); tested on = Chikungunya virus; test = replicon luciferase activity; system = BHK-21 CHIKV replicon cells; setting = 20 µM, 48 h; endpoint = inhibition; value = ≥ 80%
SMILES = O=c1nc(NO)ccn1[C@@H]1O[C@H](CO)[C@@H](O)[C@H]1O; tested on = Chikungunya virus; test = viral replication, nLuc reporter; system = 181/25 nLuc-capsid; endpoint = IC50; value = 880 ± 410 nM
SMILES = NC(=O)c1ncc[nH]c1=O; tested on = Chikungunya virus; test = virus-induced cell death, MTS; system = U138, Brazil wild type; setting = 4 d; endpoint = IC50; value = 34200 nM
SMILES = Nc1ncnc2c([C@@H]3N[C@H](CO)[C@@H](O)[C@H]3O)c[nH]c12; tested on = Chikungunya virus; test = viral replication; system = HeLa, AF 15561; setting = 25 µM; endpoint = inhibition; value = 3.7%
SMILES = C[Se]C[C@H](N)C(=O)O; tested on = rep main protease; test = reporter gene (Gaussia luciferase), inhibitor; setting = 20 µM; endpoint = inhibition; value = 0.87%
SMILES = O=C(N1CCC2(CC1)CC(CNS(=O)(=O)CCCCl)CCO2)C1(c2ccccc2)CCCC1 (stereo not drawn); tested on = Chikungunya virus; test = viral replication; endpoint = EC50; value = ~1000 nM
SMILES = CC[C@H](C)[C@H](NC(=O)[C@H](CC(C)C)NC(=O)[C@H](Cc1c[nH]c2ccccc12)NC(=O)[C@H](CCC(N)=O)NC(=O)[C@@H](NC(=O)[C@H](Cc1ccccc1)NC(=O)[C@H](C)NC(=O)[C@H](CCCCNC(=O)COCCOCCNC(=O)COCCOCCNC(=O)CC[C@H](NC(=O)CCCCCCCCCCCCCCCCCCC(=O)O)C(=O)O)NC(=O)[C@H](CCC(N)=O)NC(=O)[C@H](C)NC(=O)[C@@H](NC(=O)[C@H](CCCCN)NC(=O)[C@H](CC(=O)O)NC(=O)[C@H](CC(C)C)NC(=O)C(C)(C)NC(=O)[C@@H](NC(=O)[C@H](CO)NC(=O)[C@H](Cc1ccc(O)cc1)NC(=O)[C@H](CC(=O)O)NC(=O)[C@H](CO)NC(=O)[C@@H](NC(=O)[C@H](Cc1ccccc1)NC(=O)[C@@H](NC(=O)CNC(=O)[C@H](CCC(=O)O)NC(=O)C(C)(C)NC(=O)[C@@H](N)Cc1ccc(O)cc1)[C@@H](C)O)[C@@H](C)O)[C@@H](C)CC)[C@@H](C)CC)C(C)C)C(=O)N[C@@H](C)C(=O)NCC(=O)NCC(=O)N1CCC[C@H]1C(=O)N[C@@H](CO)C(=O)N[C@@H](CO)C(=O)NCC(=O)N[C@@H](C)C(=O)N1CCC[C@H]1C(=O)N1CCC[C@H]1C(=O)N1CCC[C@H]1C(=O)N[C@@H](CO)C(N)=O; system = healthy subjects, single ascending dose; setting = 0.25 mg, baseline; endpoint = serum lipase; value = 20.2 ± 8.4 U/L
SMILES = O=C(N1CCC2(CC1)C[C@H](CN1CCCCS1(=O)=O)CCO2)C1(c2ccccc2)CCCC1; tested on = Chikungunya virus; test = viral replication; endpoint = EC50; value = 100 nM
SMILES = NC(=O)c1nc(F)c[nH]c1=O; tested on = Chikungunya virus; test = viral replication; system = BHK-21, CHIKV; endpoint = EC50; value = 8100 nM
SMILES = CC(=O)N[C@@H]1[C@@H](O[C@H](C)C(=O)N[C@@H](C)C(=O)N[C@H](CCC(=O)O)C(N)=O)[C@H](O)[C@@H](CO)O[C@H]1O; tested on = Chikungunya virus; test = viral infection; setting = concentration not given; endpoint = infectivity; value = 150% and 156% and 102% and 169%
SMILES = COc1cc2c(cc1NC(=O)c1ccc(C(C)(C)C)cc1)CCC2; tested on = Chikungunya virus; test = viral replication; system = NHDF; endpoint = EC90; value = > 6000 nM
SMILES = NC(=O)NCC1CCOC2(CCN(C(=O)C3(c4ccccc4)CCCC3)CC2)C1 (stereo not drawn); tested on = Chikungunya virus; test = viral replication; endpoint = EC50; value = ~10000 nM
SMILES = CC(C)=CCC/C(C)=C/Cc1c(O)ccc(C(=O)/C=C/c2ccc(O)cc2)c1O; tested on = Chikungunya virus; system = BHK-21 CHIKV replicon Gluc reporter; scale = relative to: CC50 over EC50; endpoint = selectivity index; value = 1.66
SMILES = CNC(=O)[C@@H](NC(=O)[C@H](CC(C)C)[C@H](O)C(=O)NO)C(C)(C)C; test = prothrombin time; system = human platelet-poor plasma; setting = 100 µM, with: AP venom; endpoint = inhibition; value = 18.5% and 18%
SMILES = Cn1cnc(Cn2c(=O)[nH]/c(=N\c3cc4cn(C)nc4cc3Cl)n(Cc3cc(F)c(F)cc3F)c2=O)n1; system = human, moderate renal impairment; setting = oral, 375 mg; endpoint = any TEAE, moderate severity; value = 12.5%
SMILES = O=C1OC(CN2CCOCC2)CN1/N=C/c1ccc([N+](=O)[O-])o1 (stereo not drawn); tested on = Chikungunya virus; test = replicon luciferase activity; system = BHK-21 CHIKV replicon cells; setting = 20 µM, 48 h; endpoint = inhibition; value = ≥ 80%
SMILES = Cc1[nH]cnc1C(=O)NC[C@H](NC(=O)c1c(Cl)ccnc1F)c1ccc2ccccc2c1; tested on = rep main protease; test = enzyme activity, inhibitor; setting = 5 µM, run 2; endpoint = inhibition; value = 8.7%
SMILES = Cn1c(=O)c(C(=O)CCN2CCOCC2)c(O)c2ccccc21; tested on = Chikungunya virus; test = viral replication; setting = 20 µM, added at 0 h post-infection; endpoint = inhibition; value = 99%
SMILES = CN(C)CCCN1c2ccccc2Sc2ccccc21; tested on = Chikungunya virus; test = replicon luciferase activity; system = BHK-21 CHIKV replicon cells; setting = 20 µM, 48 h; endpoint = inhibition; value = ≥ 80%
SMILES = CCc1cc2c(cc1NC(=O)c1ccc(C(C)(C)C)cc1)CCCCC2; tested on = Chikungunya virus; test = viral replication; system = NHDF; endpoint = EC90; value = 1700 nM

For quick reference, copied from above:
SMILES = NC(=O)c1ncc[nH]c1=O; tested on = Chikungunya virus; test = virus-induced cell death, MTS; system = U138, Brazil wild type; setting = 4 d; endpoint = IC50; value = 34200 nM
SMILES = Nc1ncnc2c([C@@H]3N[C@H](CO)[C@@H](O)[C@H]3O)c[nH]c12; tested on = Chikungunya virus; test = viral replication; system = HeLa, AF 15561; setting = 25 µM; endpoint = inhibition; value = 3.7%
SMILES = C[Se]C[C@H](N)C(=O)O; tested on = rep main protease; test = reporter gene (Gaussia luciferase), inhibitor; setting = 20 µM; endpoint = inhibition; value = 0.87%
SMILES = O=C(N1CCC2(CC1)CC(CNS(=O)(=O)CCCCl)CCO2)C1(c2ccccc2)CCCC1 (stereo not drawn); tested on = Chikungunya virus; test = viral replication; endpoint = EC50; value = ~1000 nM
